Published values of several laboratories.
Protocols differ between the studies behind these lines.

Substance = UBE2G2 (Homo sapiens, UniProt P60604); assay = NMR, measured: His94; setting = 295 K; pKa = 6.25
Substance = CRYGD P23T (Homo sapiens); assay = NMR, measured: His65; setting = 25 °C, numbering of the source; pKa = 5.97
Substance = nuc G50F/V51N/P117G/H124L/S128A/del44-49/L38D/E122Q (Staphylococcus aureus); assay = NMR, measured: His8; setting = 298 K, KCl 100 mM, numbering of the source; pKa = 6.5
Substance = CISD1 soluble cytoplasmic domain (Homo sapiens, UniProt Q9NZ45); assay = optical potentiometric redox titration, measured: His87; setting = cluster reduced; pKa = > 11.5
Substance = ksi D40N/F86A (Pseudomonas putida); assay = UV-vis, measured: Tyr57; setting = 25 °C; pKa = 6.3
Substance = WT1 zinc finger 4 (Homo sapiens, UniProt P19544); assay = NMR, measured: His27; setting = 288 K, KCl 10 mM, apo, unfolded, reduced, numbering of the source; pKa = 6.9
Substance = ksi D40E/D103N (Pseudomonas putida); assay = UV-vis, measured: Tyr57; setting = 25 °C; pKa = > 10
Substance = ahpC (Salmonella typhimurium, UniProt P0A251); assay = chemical modification, mass spectrometry, measured: Cys165; setting = ammonium sulfate 100 mM, numbering of the source; pKa = 8.74
Substance = ksi D40N/D103N (Pseudomonas putida); assay = UV-vis, measured: Tyr57; setting = 25 °C; pKa = 7.2
Substance = CRYGD (Homo sapiens, UniProt P07320); assay = NMR, measured: His22; setting = 25 °C, numbering of the source; pKa = 5.4
Substance = PCSK1 propeptide domain (Homo sapiens, UniProt P29120); assay = mass spectrometry, measured: His75; setting = apparent, histidine H/D exchange, pepsin digest; pKa = 5.97
Substance = PRL (Homo sapiens, UniProt P01236); assay = NMR, measured: His46; setting = 35 °C, numbering of the source; pKa = 6.56
Substance = ksi Y16F/D40N/D103N (Pseudomonas putida); assay = UV-vis, measured: Tyr57; setting = 25 °C; pKa = > 10
Substance = iscU apo (Escherichia coli, UniProt P0ACD4); assay = NMR titration, measured: His10; setting = 25 °C, NaCl 150 mM, S-state, averaged, apo; pKa = < 5.3
Substance = PBP1 mature (Amyelois transitella); assay = NMR, measured: His95; setting = 25 °C, free protein; not delipidated; pKa = 6
Substance = nuc G50F/V51N/P117G/H124L/S128A/del44-49 (Staphylococcus aureus); assay = NMR, measured: His121; setting = 298 K, KCl 100 mM, numbering of the source; pKa = 5.4
Substance = ksi Y32A/D40N/D103N (Pseudomonas putida); assay = UV-vis, measured: Tyr57; setting = 25 °C; pKa = > 10
Substance = nuc G50F/V51N/P117G/H124L/S128A/del44-49/L38E/E122Q (Staphylococcus aureus); assay = NMR, measured: His121; setting = 298 K, KCl 100 mM, numbering of the source; pKa = 5.7
Substance = ksi D40N/M105A (Pseudomonas putida); assay = UV-vis, measured: Tyr57; setting = 25 °C; pKa = 6.3
Substance = proteorhodopsin, retinal (uncultured gamma-proteobacterium EBAC31A08, UniProt Q9F7P4); assay = UV-vis, measured: Asp97; setting = NaCl 100 mM, large DMPC nanodisc, monomeric; pKa = 6.5
Substance = ksi Y32F/D40N/D103N (Pseudomonas putida); assay = UV-vis, measured: Tyr57; setting = 25 °C; pKa = > 9
Substance = ORF56 (Sulfolobus islandicus, UniProt Q54323); assay = NMR, measured: Tyr16; setting = free native homodimer, low salt; pKa = 9.14

A few entries again:
Substance = ksi D40E/D103N (Pseudomonas putida); assay = UV-vis, measured: Tyr57; setting = 25 °C; pKa = > 10
Substance = ksi Y32A/D40N/D103N (Pseudomonas putida); assay = UV-vis, measured: Tyr57; setting = 25 °C; pKa = > 10
